Assay results gathered from unrelated publications.
Compare with care: the assays were run in different laboratories. ± gives the spread as reported.

Under “log2 fold change”, `c1ccc(-c2n[nH]cc2-c2ccnc3ccccc23)nc1` is recorded as -0.36 (SSK2 (Candida albicans); kinase binding, MIB/MS competition; Candida albicans lysate; 10 µM; reference: DMSO).
With `Cc1ncsc1-c1ccc(CNC(=O)[C@@H]2C[C@@H](O)CN2C(=O)[C@@H](NC(=O)C2(F)CC2)C(C)(C)C)c(OCCC2CCN(c3nc(NCC(C)(C)C4(O)CCOC4)nc(N4CCC[C@H]4Cn4ccnn4)n3)CC2)c1` (stereo partly shown) the cooperativity alpha was 2.8 (BRD9 and VHL-elongin C-elongin B; SPR; immobilized BRD9; reference: binary KD over ternary KD).
`O=c1c(-c2ccc(F)cc2)c[nH]c2ccnc(Cl)c12`: “binding free energy change” -0.5 kcal/mol (WDR5; reference: parent hit compound, negative = stronger binding).
`CCCCCCc1ccc(N(C)C(=O)OC(C)(C)C)cc1` — result for “average chemical shift perturbation”: 0.008 ppm (HBV core protein Cp149 dimer; solution NMR; 4 molar equivalents, pH 7.5, 295 K, average over eight residues; reference: apo Cp149 dimer).
The IC50 of `Cc1cc(NC(=O)C(=O)N2C[C@@H](C)CC[C@@H]2c2ccc3scnc3c2)cnc1N` is reported as 180 nM (PRMT5 human; western blot, item: SDMA; HAP1 MTAP wild type; 24 h).
For `CCCCCCc1ccc(NCc2ccccc2)cc1`, “average chemical shift perturbation” read 0.014 ppm (HBV core protein Cp149 dimer; solution NMR; 4 molar equivalents, pH 7.5, 295 K, average over eight residues; reference: apo Cp149 dimer).
`C=CC(=O)Nc1cccc(Cn2ncc3cnc(Nc4cnn(CCOC)c4)nc32)c1`: “percent of control” 100% (FES human; binding, KINOMEscan; 100 nM; lower = stronger binding).
`CC(=O)NCC1CCCCN1c1nc(N(C)CCc2ncc(C)s2)nc(N2CC3C(CCOc4cc(-c5scnc5C)ccc4CNC(=O)[C@@H]4C[C@@H](O)CN4C(=O)[C@@H](NC(=O)C4(F)CC4)C(C)(C)C)C3C2)n1` (stereo partly shown) has a cooperativity alpha of over 45 (BRD9 and VHL-elongin C-elongin B; SPR; immobilized BRD9; reference: binary KD over ternary KD).
`Nc1ncc(-c2cc(-c3cnn(CC(F)(F)F)c3)ncc2F)nc1C(=O)NC1CNCC(F)C1` (stereo not shown) gave a remaining binding of 93% (PIK3CB; KINOMEscan; 1 µM; reference: DMSO control).
For `Cc1cn(CC(=O)N(CC(=O)N[C@H]2CCC[C@@H]2N(CC(=O)N[C@H]2COC[C@@H]2N(CC(=O)N[C@H]2COC[C@@H]2N(CC(=O)N[C@H]2COC[C@@H]2N(CC(=O)NCCOCCOCC(N)=O)C(=O)Cn2cnc3c(N)ncnc32)C(=O)Cn2cc(C)c(=O)[nH]c2=O)C(=O)Cn2cnc3c(N)ncnc32)C(=O)Cn2cnc3c(=O)[nH]c(N)nc32)[C@H]2CCC[C@@H]2NC(=O)CN(C(=O)Cn2cnc3c(=O)[nH]c(N)nc32)[C@H]2CCC[C@@H]2NC(=O)CN(C(=O)Cn2cc(C)c(=O)[nH]c2=O)[C@H]2COC[C@@H]2NC(=O)CN(C(=O)Cn2cnc3c(N)ncnc32)[C@H]2COC[C@@H]2NC(=O)CN(C(=O)Cn2cnc3c(=O)[nH]c(N)nc32)[C@H]2COC[C@@H]2N)c(=O)[nH]c1=O`, the Tm was 84.52 ± 0.3 °C (complementary DNA; duplex formation, UV melting; PBS; 1 µM, pH 7.2).
`CCCCCCc1ccc(OC)cc1` — result for “average chemical shift perturbation”: 0.029 ppm (HBV core protein Cp149 dimer; solution NMR; 4 molar equivalents, pH 7.5, 295 K, average over eight residues; reference: apo Cp149 dimer).
With `Fc1ccc(Nc2nc(NC3CCCCC3)c3cc(Br)ccc3n2)cc1F` the pIC50 was 6.3 (β2AR/β1AR ICL3 chimera; β-arrestin2 recruitment, antagonist, BRET; together with: isoprenaline 1 µM).
`CCCCCCc1ccc(NC)cc1` — result for “average chemical shift perturbation”: 0.03 ppm (HBV core protein Cp149 dimer; solution NMR; 4 molar equivalents, pH 7.5, 295 K, average over eight residues; reference: apo Cp149 dimer).
The relative co-enrichment of `C=CC(=O)N1[C@@H](c2ccc3c(c2)OCO3)c2[nH]c3ccccc3c2C[C@H]1C(=O)N1CCN(C)CC1` is reported as 114% (human cyclin E1 wild type-3xFLAG:CDK2; co-IP with TMT proteomics, item: CKS1B; concentration not given, P61024; reference: wild type DMSO).
`CC(C)OCc1ccc(O)cc1`: “average chemical shift perturbation” 0.038 ppm (HBV core protein Cp149 dimer; solution NMR; 4 molar equivalents, pH 7.5, 295 K, average over eight residues; reference: apo Cp149 dimer).
`CC[C@H](C)[C@H](NC(=O)[C@H](CC(C)C)NC(=O)[C@H](C)NC(=O)[C@H](C)NC(=O)[C@@H]1CCCN1C(=O)[C@@H](NC(=O)[C@H](C)N)C(C)C)C(=O)N[C@@H](CC(C)C)C(=O)N[C@@H](CCCNC(=N)N)C(=O)N[C@@H](CCC(=O)O)C(=O)N[C@@H](CCCCN)C(=O)N[C@@H](CCCCN)C(=O)N[C@@H](CCCCN)C(=O)N[C@@H](CCCCNC(=O)CCCCCNC(=S)Nc1ccc2c(c1)C(=O)OC21c2ccc(O)cc2Oc2cc(O)ccc21)C(N)=O` — result for “log2 fold change”: 6.88 (BIRC2 (human); concentration not given, 10-fold competition; reference: no competitor).

For quick reference, copied from above:
`CCCCCCc1ccc(N(C)C(=O)OC(C)(C)C)cc1` — result for “average chemical shift perturbation”: 0.008 ppm (HBV core protein Cp149 dimer; solution NMR; 4 molar equivalents, pH 7.5, 295 K, average over eight residues; reference: apo Cp149 dimer).
The IC50 of `Cc1cc(NC(=O)C(=O)N2C[C@@H](C)CC[C@@H]2c2ccc3scnc3c2)cnc1N` is reported as 180 nM (PRMT5 human; western blot, item: SDMA; HAP1 MTAP wild type; 24 h).
